Measurements collected from several papers.
Each numbered part is a random draw from the data of one study; scales do not carry over between parts.

Series 1 — method: RNA Bind-n-Seq; molecule type: RNA; matrix: in vitro; tested at: not given; reference: input RNA pool; reading: higher = stronger binding; endpoint: bound/input enrichment
Target: RING finger protein unkempt homolog, zinc fingers 1-6, GST-SBP tag (UNK, Homo sapiens, UniProt Q9C0B0, residues 30-357)
Sequence of UniProt Q9C0B0 (30-357, looked up): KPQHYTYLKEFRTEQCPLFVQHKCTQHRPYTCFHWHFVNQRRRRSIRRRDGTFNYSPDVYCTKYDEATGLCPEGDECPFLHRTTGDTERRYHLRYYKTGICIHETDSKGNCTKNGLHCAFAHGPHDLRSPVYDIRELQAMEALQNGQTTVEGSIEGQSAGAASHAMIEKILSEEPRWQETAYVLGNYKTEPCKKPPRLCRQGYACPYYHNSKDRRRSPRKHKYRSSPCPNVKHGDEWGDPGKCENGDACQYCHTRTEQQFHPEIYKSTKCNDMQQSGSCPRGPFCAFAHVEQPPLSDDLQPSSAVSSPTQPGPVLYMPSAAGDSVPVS
Setting: RNA with constant flanks, human and mouse sites, ends assumed
Constant ends, left off below: GGGAGUUCUACAGUCCGACGAUC … CAACAGAGGAUUGAGCAUCA
AACAAGAUGAAGGAUCAGCUGUUGCCAGAGAAGGGCUGUGGACUGGCGCCACCUCACUAUCCCACUUUGCUAACUGUCCCUGCCUCAGUGUCCCUGUCCUCUGGCAUCAGCAUGGACACA: 0.146 ratio
ACCUUUGACCAGGCCACGGGAGGGACCGCGCAGUUUGAAGCACACUCUGAUGCUCAGGCUCUAGUUCUCUUAGAUGUCACACCUGACCAGUCAAUGGUGGAUGAGGGCAUGGCUCGGGAA: 0.169 ratio
AAAGAUCCUAACAUGAAAGGUGCAAUGCUUACAAACACUGGAAAAUAUGCAAUACCAACUAUAGAUGCAGAGGCCUAUGCAAUCGGGAAGAAAGAGAAACCACCCUUCUUACCAGAGGAG: 0.191 ratio
AGACACAAAGCAGCCACCAAAGGCUCAAGGAAACCCAAUAUAAAGAAGGAGUCUAAGUCUUCCCCUCGACCUACAGCAGAGAAAAAGAAAUAUAAGUCAACAAGUAAAUCUUCCCAGAAA: 0.355 ratio
GAUGGAUUUUACUUUUCAACAACAUAUGAUUUGACCCAUACUUUGCAGCGGCUAUCCAACACUAGUCCUGAAUUCCAAGAAAUGAGUCUCUUGGAAAGGGCAGAUCAGCGGUUUGUAUGG: 0.253 ratio
AGAGGUGCAAAGAAGACUGCAGAAAUGAACGAAAAGCUCUCCAAGAUGGGUGAAAGUUCACUUAGAAACUUUACGAUGGACACAGAGUCCAGUGUUUAUAACUUUGAAGGAGAAGACUAU: 0.392 ratio
UACCUUGAAAGAAGAAAAGGUUCUUACUGCUUGGUCCUUGAUUUAUCACACAAAGCAGAAUAGUAUUUUUAUAUUUAAAUGUAAAGACAAAAAACUAUAUGUAUGGUUUUGUGGAUUAUG: 1.76 ratio
GAGCCGGCCGAGCUCAUCCGACGAGCGCACGAGUUCAAAAGCCAAGGGGCGCAGUGCUACAAGGACAAGAAAUUCCGUGAAGCCAUAGGCAAAUACCACCGGGCGUUGCUGGAGCUGAAG: 0.168 ratio
GUUUUCAUGCCCGGCCUUUGUUCCCCCCGUCCAUGUGUCCUUUAGUUUCAAACAGAUCUUUAUAGUUUGUGCUUCAUAAGCCAAUUCUUAUUAUGAUUUUGGGGGACUGUUCUUCAAAGA: 0.614 ratio

Series 2 — method: RNA Bind-n-Seq; molecule type: RNA; matrix: in vitro; tested at: 365 nM; reference: no-protein control; reading: higher = stronger binding; endpoint: RBNS enrichment (R)
Target: RNA binding protein fox-1 homolog 2, RRM domain, GST-SBP tag (RBFOX2, Homo sapiens, UniProt O43251-10, residues 100-194)
Setting: natural RNA segment, single round, ends assumed
Constant ends, left off below: GGGAGUUCUACAGUCCGACGAUC … UGGAAUUCUCGGGUGCCAA
Construct (chain): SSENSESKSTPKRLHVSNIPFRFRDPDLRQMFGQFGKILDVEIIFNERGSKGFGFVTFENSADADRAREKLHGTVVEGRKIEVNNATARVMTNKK
AUGCUUAAAAGGUUGCAUACUGAGCCAAGUAUAAUUUUUUGUAAUGUGUGAAAAAGAUGCCAAUUAUUGUUACACAUUAAGUAAUCAAUAAAGAAAACUUCCAUAGCUAU: 0.292
CUGAGGAUUUCUUUUUGGUUUGCCUUUUAUGUAAAUUUUUUACGUAGCUAUUUUUAUACACUGUAAGCUUUGUUCUGGGAGUUGCUGUUAAUCUGAUGUAUAAUGUAAUG: 1.29
UUGGUCACUGUUAUUUGCCUACUGCUGGAAGAAGGACAACCGCUGGCAAGGUAGCGUUCCCCAAUCUGAAUACCUGCAGGCUCCCACAUGAGGGAGAGGGCAGACUCAGG: 0.298
GGGUGACGUGAUGAGAGGUUUGAGAAAUGGGUGAAAUGAAAUGGGGGAUAUGUAGGUCAAAUCAAAUUAAAGAUGAUUUUUUUAAUGUGAAUAAAGUUAUGUUCUGAUAG: 3.1
UCUGAGAUAGGUAGAAGUCUUGAGACGGAGGCUGGCCAUCCAUUCAGCCCUGAGCGUGCUGAGUUCUGUGUUUCUCUGAAUAGAGGUGUGGAACCUGAGGGGCCAGCAGG: 0.8
GGUGAGCGCCACAUGAGUGUAGAGGCACUAUAUGACGUAGUGUACUGAGCAUGCAACGCUGCUGCCGUCCUUGUCUGUGGUUUCAGUUUGUAAAACUGCUAAGCCAUUCU: 0.311
UGAGGCUGAACCCUCUCAAAGGGCUGUCACCAUCACCUGCUGCUAGGACACUACAAAACAAUCAAAUAAUUCUUUUCUGUAAUCCAAUAUGCAGCAAGCAAGGGUGACCU: 0.267
AAUAAGCAUGAUGGUGCCUUCUAUUACAUCAUUCCAGUCUUGCUGGUGAUCCUGUACGGUGUGGUCUAUGAAUUGCUGCACUGCAAAGCCACACAGCUGCAAAACGUUGA: 8.63
UCUUGCACUUUAAAAACGCUGCGUCCUAUUCCAUUUGAAUGUAAAUUCUUAAAAGUUGAGACCAAUUGUAACCAGUUUAACUCAUUUUAGAUGACCUUUUUUUCUUAUAA: 0.354
ACCUCAGUCAAGACGGAAGUAAAGGCUCAGGAAACAGCCCACCACAGAGGCAGAUGCCAAACCAAAGACAGAUUGCUUAACCAACAGAUGGGCGCUGACCCCCUAUCCAG: 0.319
AACUUGUACCACAAAACAAUAUCGCUUUAACUUUUCUAAAGCCAAAUUUCCCAUGUAAGCUGCAGUUUCUAUCUUUAGCCCAUCAUCAUUUUCUGCCCCCCCAAAAUCUG: 0.614
CCAGCCCUGGCCCGGCUGCCACACCUCUGUUUCCUAGGCUGGGGACCCAGCUUGUCUCUCCUUGUUUCUUCCCACUGCACUGUGGUGCUUCAGUGGCCACCAGCCUCGUC: 0.5

Series 3 — method: aptamer microarray, sandwich; molecule type: DNA with 2'F-ANA; matrix: in vitro; tested at: 200 nM; with: Cy3 exosite-II aptamer, 400 nM; reading: higher = stronger binding; endpoint: mean fluorescence intensity; strand: GGTTGGTGTGGTTGG
Target: Prothrombin, mature alpha-thrombin (F2, Homo sapiens, UniProt P00734)
Setting: whole 15-mer aptamer, many near background
2'F-ANA at 3 5 6 7 12 13: 176 a.u.
2'F-ANA at 1 4 6 7 8 9 11 14: 60.4 a.u.
2'F-ANA at 2 5 8 12 13 14: 45.9 a.u.
2'F-ANA at 3 4 5 6 7 9 12: 211 a.u.
2'F-ANA at 1 2 6 7 8 9 13 14 15: 102 a.u.
2'F-ANA at 1 2 3 5 7 8 10 11 12 13 14 15: 48.9 a.u.
2'F-ANA at 1 2 3 5 6 7 9 10 11 12 14: 57.2 a.u.
2'F-ANA at 3 6 7 8 9 11 13 15: 814 a.u.
2'F-ANA at 1 4 6 8 9: 125 a.u.
2'F-ANA at 1 4 6 7 10 11 12 13 14: 44.5 a.u.
2'F-ANA at 1 3 4 5 6 7 12 14: 47.5 a.u.
2'F-ANA at 2 3 4 5 9 11: 74.6 a.u.
2'F-ANA at 1 3 5 6 7 8 9 10 12 13 15: 52.3 a.u.
2'F-ANA at 1 3 4 6 11 13 15: 121 a.u.
2'F-ANA at 2 3 7 8 10 11 12 13 15: 418 a.u.
2'F-ANA at 1 3 4 5 6 7 10 11 12 15: 50.1 a.u.
2'F-ANA at 2 4 5 7 8 12 14: 52.1 a.u.
2'F-ANA at 1 3 5 6 7 12: 131 a.u.
2'F-ANA at 3 5 6 7 10 11 12 13 14: 48.2 a.u.

Series 4 — method: protein binding microarray; molecule type: double-stranded DNA, one strand shown; matrix: in vitro; tested at: not given; reference: not given; reading: higher = stronger binding; endpoint: E-score
Target: Histone acetyltransferase KAT6A, both winged helices, GST fusion (KAT6A, Homo sapiens, UniProt Q92794, residues 1-181)
Setting: 8-mer, flanks averaged, mean of 2 arrays, mostly near background
Target sequence (chain): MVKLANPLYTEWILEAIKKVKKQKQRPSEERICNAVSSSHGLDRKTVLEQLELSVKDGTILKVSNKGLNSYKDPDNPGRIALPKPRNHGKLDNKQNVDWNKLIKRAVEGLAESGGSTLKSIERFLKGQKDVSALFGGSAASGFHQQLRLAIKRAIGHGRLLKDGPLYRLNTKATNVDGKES
CCGCTATA: 0.148
GACCTCCA: -0.017
AATCTCTA: -0.0473
GAAATGAA: -0.0313
CGCGATAG: 0.162
GGCGCACC: 0.121
GCTCTGCC: -0.0477
ACTGAGAG: -0.222
TACGTACA: 0.0388
GACCTAAC: -0.0589
GACACCTA: -0.112
CGCAGAAA: 0.183
GCATATGA: 0.0601
TAAATAAA: 0.0119
CATTTTCC: -0.0121
AAGGCGAC: -0.0821
CCAAGAAC: -0.171
GTCGCAAA: 0.136

Series 5 — method: protein-binding microarray; molecule type: double-stranded DNA, one strand shown; matrix: in vitro; tested at: not given; reading: higher = stronger binding; endpoint: E-score
Target: Microphthalmia-associated transcription factor, full length (MITF, Homo sapiens, UniProt O75030-10, residues 1-413)
Setting: k-mer, scored over probes, only values ≥0.25
Residues (chain): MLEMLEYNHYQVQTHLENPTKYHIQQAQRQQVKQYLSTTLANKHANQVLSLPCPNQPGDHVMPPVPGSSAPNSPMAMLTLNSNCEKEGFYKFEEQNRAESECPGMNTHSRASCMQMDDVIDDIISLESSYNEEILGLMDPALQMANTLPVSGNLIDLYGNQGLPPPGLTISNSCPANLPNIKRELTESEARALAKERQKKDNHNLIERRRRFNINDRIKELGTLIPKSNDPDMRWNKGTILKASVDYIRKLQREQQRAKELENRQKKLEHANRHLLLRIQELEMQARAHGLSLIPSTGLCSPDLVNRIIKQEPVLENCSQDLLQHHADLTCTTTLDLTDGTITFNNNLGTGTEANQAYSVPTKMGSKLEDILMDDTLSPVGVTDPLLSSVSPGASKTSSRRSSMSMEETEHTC
CATGCGC: 0.307
AGGCACG: 0.274
ATGTGAC: 0.421
CATCACA: 0.267
ATCATGC: 0.38
AATCACA: 0.31
CATGACA: 0.394
CTTATGA: 0.281
CCACGGG: 0.371
CATGTGG: 0.391
CACGAGC: 0.362
CGTGGTC: 0.28
CCCGTGA: 0.47
ACATGTC: 0.268
CATGAGA: 0.3
ACATGAG: 0.286
ACGGGGC: 0.278
CACCTGA: 0.393
